Results from different studies.
Parts stem from different laboratories: compare values within a part only.

Study 1
Target: RING finger protein unkempt homolog, zinc fingers 1-6, SBP tag (UNK, Homo sapiens, UniProt Q9C0B0, residues 30-357)
UniProt Q9C0B0, sequence (30-357, looked up): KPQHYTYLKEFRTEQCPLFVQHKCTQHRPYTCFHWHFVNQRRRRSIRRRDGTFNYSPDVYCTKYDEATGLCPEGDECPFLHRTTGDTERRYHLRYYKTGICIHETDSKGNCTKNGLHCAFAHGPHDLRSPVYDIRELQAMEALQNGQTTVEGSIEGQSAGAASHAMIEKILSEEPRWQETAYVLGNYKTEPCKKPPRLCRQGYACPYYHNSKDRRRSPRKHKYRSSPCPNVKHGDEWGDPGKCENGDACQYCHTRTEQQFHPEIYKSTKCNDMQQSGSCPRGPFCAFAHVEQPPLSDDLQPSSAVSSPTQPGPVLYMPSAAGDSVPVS
Method: RNA Bind-n-Seq
Form: RNA
Medium: in vitro
Concentration: 100 nM
Notes: RNA with constant flanks, vertebrate orthologous sites, ends assumed
Reference: input RNA pool
Reading: higher = stronger binding
Constant ends, left off below: GGGAGUUCUACAGUCCGACGAUC … CAACAGAGGAUUGAGCAUCA
`GGCUCCUCCUAUGAGCGAGAGUUUGGGAGGAGCCCACGAUGACCCUCAGCUAUUCCAAUCCAGUCUUUUCUUUUUUAAAAUUAGUGUAUUUAUUAUGACGAUGAUGACUCCCUGGUGCAC` has a bound/input enrichment of 1.29 ratio.
With `GGGUUUGGGGUAGAAGGGAGGGAGGGGGCAGGACAGUGUGGAAUCUCUAGGGUGUAUGGGUAGGUAGGGGGCACAGUUAGUUCUAAGUGGGCCUUUAUGCUAAAAGCCUCUGGGGAUAUC` the bound/input enrichment was 0.978 ratio.
With `UUCAUUACCUGAGCCGAGUGGAGGUGACGGAGUUUGAAGACAUCAAGUCAGGCUACAGAAUAGAUUUUUGUUUAAUGGUUUCACGUAACACUUUAGUGACUAUUUUUAUUUUUUAAAAUU` the bound/input enrichment was 1.24 ratio.
With `AUUGCCUACAAUAAUGAAAACCUAUAAAAUUUUUUUGUUUUUCAUUUCCCCCUUAGGCAUAAUUAGUCUUUUUUCCCAGGCAGAUCAUUCUGAGUGUGCGAGUGUGUGUGCACAUGUUAC` the bound/input enrichment was 0.979 ratio.
With `GCCUCUAGCAGGCAGUUUCAGGGAGAGAUAGGCUUCAGGGAAUAUAAAUUUAUUUAAUAUGAGUGUUCUUGAAGUAUAAACUUGAUAUAAUUGUUUUGGGAGGGGGACAGUGAUGAUGAC` the bound/input enrichment was 1.03 ratio.
`CCUACAAUAAUGAAAACCUACAGGAAUUUUUUUUUUCCCCAUUAUCCCCUUAGGCAUAUUUAGGCUUUUCCCCAGGCAGAUUAUUCUGAGUGUGCGAGUAUGUGUGCACAUGUUACAGAG` has a bound/input enrichment of 0.876 ratio.
`AUGUAUGUAGAAAAAAAUUUUCAUUCAUCUUCCUGUUGUGAAAUUCUCUAGCACUGUAUUUAGAUUCUGGAUUUUUAUAAUUCAUGCUUAAUGUAUUAGACAUUUUAGCUCAUAAUUAAA` has a bound/input enrichment of 0.633 ratio.
The bound/input enrichment of `GGGACGCUUUGAUGUAAAAAUUGAAGUUAAGAGCUGAUCACAAGCACACAUCUUUCUCACUAGCCAUUUAAAAAAAGUAAAAAAGAUACAAAAACCUACUAGUCUUGAACAAACUGUCAU` is reported as 0.911 ratio.

Study 2
Target: Interferon regulatory factor 7, full length, phosphomimetic (IRF7, Homo sapiens, UniProt Q92985, residues 1-503, S101K/S471D/S472D/S475D/S476D/S477D/S483D/S484D/S487D)
Method: protein-binding microarray
Form: double-stranded DNA, one strand shown
Medium: in vitro
Concentration: 250 nM
Notes: 60-bp whole probe
With: salmon DNA 0.4 mg/ml
Reference: random background probes
Reading: higher = stronger binding
Constant ends, left off below: GCCTAGCAC … GTCTTGATTCGCTTGACGCTGCTG
Residues (chain): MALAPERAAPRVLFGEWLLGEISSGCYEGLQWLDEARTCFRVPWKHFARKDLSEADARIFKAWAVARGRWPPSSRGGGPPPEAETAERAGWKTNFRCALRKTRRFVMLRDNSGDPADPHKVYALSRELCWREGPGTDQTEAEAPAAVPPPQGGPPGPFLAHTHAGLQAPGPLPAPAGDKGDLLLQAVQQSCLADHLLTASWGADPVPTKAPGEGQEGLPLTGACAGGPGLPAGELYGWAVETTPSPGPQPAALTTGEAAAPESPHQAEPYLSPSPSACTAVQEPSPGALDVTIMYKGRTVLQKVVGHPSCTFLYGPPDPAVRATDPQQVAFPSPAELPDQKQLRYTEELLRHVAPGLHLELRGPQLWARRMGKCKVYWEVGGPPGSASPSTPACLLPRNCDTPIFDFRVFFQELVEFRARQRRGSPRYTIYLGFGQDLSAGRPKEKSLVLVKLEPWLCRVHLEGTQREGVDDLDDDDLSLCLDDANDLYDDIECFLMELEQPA
`TTAGGTTTCCTTATCCTTTGGTGCTAG` gave a log fluorescence of 2.42 z-score.
For `GACGGTTCACTTTTCCTGACGTGCTAG`, the log fluorescence was 0.914 z-score.
For `TTAGAACTGAGTTTCCATTAGTGCTAG`, the log fluorescence was 2.2 z-score.
For `TATTCTCTACTTGTGTCTAGGTGCTAG`, the log fluorescence was 3.59 z-score.
`GTCGAACTGAGTTTCGAGACGTGCTAG` gave a log fluorescence of 4.38 z-score.
The log fluorescence of `AGAGCCATCAATATCTGCAAGTGCTAG` is reported as -0.615 z-score.
With `GACGATTTCAGTCTCCAGACGTGCTAG` the log fluorescence was -0.00213 z-score.
For `TTAGGTTTGGACACTGGGTTAGTGCTA`, the log fluorescence was -0.352 z-score.
The log fluorescence of `TTAGGACTGCTTTTCCGTTAGTGCTAG` is reported as 1.03 z-score.
For `GACGTTCTCGGTATCGGGACGTGCTAG`, the log fluorescence was 1.39 z-score.
With `TCTGTTTTCGCTTTCTTTAAGTGCTAG` the log fluorescence was 9.42 z-score.
`TCAAATATTCATTTTATACTGTGCTAG` gave a log fluorescence of 0.742 z-score.
`GACGGACTGGGGCATCGGGACGTGCTA` gave a log fluorescence of -1.18 z-score.
`GACGGTATCGGATTCGGGACGTGCTAG` gave a log fluorescence of 2.25 z-score.
For `GACGGACTGGGTATCTGGACGTGCTAG`, the log fluorescence was -0.795 z-score.
For `CCTAGTTGTACTTTCTATCTGTGCTAG`, the log fluorescence was 1.1 z-score.
The log fluorescence of `TTAGATTTCGGGCATCGATTAGTGCTA` is reported as 0.328 z-score.
`AAGCAAAAATGATTGGTTGAGTGCTAG` gave a log fluorescence of -0.485 z-score.
The log fluorescence of `GACGAGTTCAGACTGGAGACGTGCTAG` is reported as -0.128 z-score.

Study 3
Target: Histone acetyltransferase KAT6A, both winged helices, GST fusion (KAT6A, Homo sapiens, UniProt Q92794, residues 1-181)
Method: protein binding microarray
Form: double-stranded DNA, one strand shown
Medium: in vitro
Concentration: not given
Notes: 8-mer, flanks averaged, mean of 2 arrays, mostly near background
Reference: not given
Reading: higher = stronger binding
Target sequence (chain): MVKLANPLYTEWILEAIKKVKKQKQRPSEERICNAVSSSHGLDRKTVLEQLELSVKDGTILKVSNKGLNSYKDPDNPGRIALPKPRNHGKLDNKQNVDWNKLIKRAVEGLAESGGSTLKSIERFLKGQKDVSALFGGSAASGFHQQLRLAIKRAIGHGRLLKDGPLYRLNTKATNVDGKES
`CCTCTCTC` gave an E-score of -0.273.
`CATATGCC` has an E-score of -0.0767.
The E-score of `AATGTTAC` is reported as 0.107.
The E-score of `AAGAGATG` is reported as -0.168.
For `ATTGCCGC`, the E-score was 0.264.
For `AGTAGTCC`, the E-score was -0.00859.
The E-score of `ACCGTTTA` is reported as 0.205.
The E-score of `AGAAGCGG` is reported as 0.157.
For `AATGTTGC`, the E-score was 0.00156.
The E-score of `CCGGTCCG` is reported as 0.277.
`CCCTTTTA` has an E-score of -0.204.
`CGGATGTC` gave an E-score of 0.229.
`ATTAATAA` has an E-score of -0.00324.
`AGCACAAG` gave an E-score of -0.23.
`ACATGCAA` has an E-score of -0.131.
With `TAGTGGAA` the E-score was -0.0195.
For `ACTTAAAT`, the E-score was -0.239.
The E-score of `ACAATCAG` is reported as -0.155.
The E-score of `ACACCTTG` is reported as -0.117.
`GAAGGCAA` has an E-score of -0.117.
For `ATTATACA`, the E-score was -0.085.
For `GCAAGGTA`, the E-score was -0.045.
`AAGACTAG` has an E-score of -0.0512.
`ACCCATCA` has an E-score of -0.15.
`ACAGTGCT` has an E-score of 0.0235.

Study 4
Target: Prothrombin, mature alpha-thrombin (F2, Homo sapiens, UniProt P00734)
Method: aptamer microarray, sandwich
Form: DNA with 2'F-ANA
Medium: in vitro
Concentration: 200 nM
Notes: whole 15-mer aptamer, many near background
With: Cy3 exosite-II aptamer, 400 nM
Reading: higher = stronger binding
Sequence: GGTTGGTGTGGTTGG
`2'F-ANA at 3 4 5 6 7 9 11 13 14 15`: “mean fluorescence intensity” 83.4 a.u.
`2'F-ANA at 1 2 3 5 7 8 9 10 11 13 14 15`: “mean fluorescence intensity” 50.8 a.u.
`2'F-ANA at 1 4 5 7 11 14`: “mean fluorescence intensity” 147 a.u.
Under “mean fluorescence intensity”, `2'F-ANA at 1 2 3 5 8 9 12 15` is recorded as 130 a.u.
For `2'F-ANA at 3 6 7 8 13`, “mean fluorescence intensity” read 929 a.u.
Under “mean fluorescence intensity”, `2'F-ANA at 1 2 3 4 8 10 12` is recorded as 77.7 a.u.
For `2'F-ANA at 1 2 3 5 6 9 10 11 12 15`, “mean fluorescence intensity” read 52.4 a.u.
`2'F-ANA at 2 3 4 7 9 10 12 13 14 15`: “mean fluorescence intensity” 187 a.u.
For `2'F-ANA at 2 3 5 7 8 9 10 11 13`, “mean fluorescence intensity” read 64.7 a.u.
Under “mean fluorescence intensity”, `2'F-ANA at 4 5 9 10 13 14` is recorded as 45.2 a.u.
For `2'F-ANA at 1 7 8 10 12 13 15`, “mean fluorescence intensity” read 76.6 a.u.
`2'F-ANA at 4 6 8 11 14` — result for “mean fluorescence intensity”: 84.9 a.u.
`2'F-ANA at 1 2 4 6 9 11 14`: “mean fluorescence intensity” 43.4 a.u.
Under “mean fluorescence intensity”, `2'F-ANA at 1 6 8 10 11 12` is recorded as 69.1 a.u.
For `2'F-ANA at 2 3 5 6 7 9 10 12 13 14 15`, “mean fluorescence intensity” read 59.4 a.u.
`2'F-ANA at 1 3 7 8 9 11`: “mean fluorescence intensity” 292 a.u.

Repeated from above (study 2):
For `TTAGAACTGAGTTTCCATTAGTGCTAG`, the log fluorescence was 2.2 z-score.
For `TATTCTCTACTTGTGTCTAGGTGCTAG`, the log fluorescence was 3.59 z-score.
`GTCGAACTGAGTTTCGAGACGTGCTAG` gave a log fluorescence of 4.38 z-score.
The log fluorescence of `AGAGCCATCAATATCTGCAAGTGCTAG` is reported as -0.615 z-score.
With `GACGATTTCAGTCTCCAGACGTGCTAG` the log fluorescence was -0.00213 z-score.
For `TTAGGTTTGGACACTGGGTTAGTGCTA`, the log fluorescence was -0.352 z-score.
The log fluorescence of `TTAGGACTGCTTTTCCGTTAGTGCTAG` is reported as 1.03 z-score.
For `GACGTTCTCGGTATCGGGACGTGCTAG`, the log fluorescence was 1.39 z-score.
With `TCTGTTTTCGCTTTCTTTAAGTGCTAG` the log fluorescence was 9.42 z-score.
`TCAAATATTCATTTTATACTGTGCTAG` gave a log fluorescence of 0.742 z-score.
